Measured values from different studies.
Compare with care: the assays were run in different laboratories. Numbers after ± are the reported error.
YAP1 WW2 domain: Transcriptional coactivator YAP1, WW2 domain (YAP1, Homo sapiens, UniProt P46937)
Kelch domain-containing protein 2: Kelch domain-containing protein 2 (UniProt Q9Y2U9)
KCNT1: Potassium channel subfamily T member 1 (KCNT1, Homo sapiens, UniProt Q5JUK3)
CFTR del508-508: Cystic fibrosis transmembrane conductance regulator (CFTR, Homo sapiens, UniProt P13569, del508-508)
YAP1 WW1 domain: Transcriptional coactivator YAP1, WW1 domain (YAP1, Homo sapiens, UniProt P46937)

Molecule	target	test	test system	setting	how to read	quantity	result
CC(C)C[C@H](NC(=O)[C@@H](NC(=O)[C@@H](N)[C@@H](C)O)C(C)C)C(=O)N1CCC[C@H]1C(=O)N1CCC[C@H]1C(=O)N1CCC[C@H]1C(=O)N1CCC[C@H]1C(=O)N[C@@H](Cc1ccc(O)cc1)C(=O)N[C@@H](CCCNC(=N)N)C(=O)N[C@@H](C)C(=O)N[C@@H](CCCNC(=N)N)C(=O)N[C@@H](CC(N)=O)C(=O)O	YAP1 WW2 domain	binding, ITC	–	pH 7.0, 25 °C, WW2 domain	–	ΔG	-5.93 ± 0.09 kcal/mol
Clc1cccc(Nc2nnc(-c3ccccc3)c3ccccc23)c1	cGMP-inhibited 3',5'-cyclic phosphodiesterase 3A (PDE3A, Homo sapiens, UniProt Q14432)	cGMP hydrolysis, inhibitor, fluorescence polarization	recombinant enzyme	up to 100 µM, 30 min preincubation, 30 °C, added: TAMRA-cGMP 25 nM	–	IC50	inactive
TVGNRGFVFGG	Kelch domain-containing protein 2	native mass spectrometry	peptide, 200 mM ammonium acetate	20 µM Kelch domain-containing protein 2, pH 7	reference: total Kelch domain-containing protein 2 signal	fraction of protein bound	0.3%
C#Cc1ccc(C(F)(F)F)cc1C=O	CD209 antigen (CD209, Homo sapiens, UniProt Q9NNX6)	activator, plate-based HRP	–	500 µM, overnight, 4 °C or RT	reference: DMSO control	HRP binding	≥ 50%
C=C[C@H](C)C[C@@H]1NC(=O)[C@H]([C@H](O)C(C)C)N(C)C(=O)[C@H](C)N(C)C(=O)[C@@H]([C@@H](C)CC)NC(=O)[C@@H]([C@H](O)C(C)C)NC(=O)[C@H]2CCCCN2C(=O)[C@H](C)N(C)C1=O	Elongation factor 1-alpha 1, ternary complex on ribosome (EEF1A1, Homo sapiens, UniProt P68104)	inhibitor, smFRET washout	–	10 µM, 30 s preincubation, 25 °C	–	residence time	1.37 min
IINFEKL	Endoplasmic reticulum aminopeptidase 1 (ERAP1, Homo sapiens, UniProt Q9NZ08, L733R)	L-AMC hydrolysis, activator	peptide	100 µM, 5 min, pH 8.0, 27 °C, mutant L733R, added: L-AMC varied from 0 µM	–	Vmax	84 ± 1 nmol/min/µg
Nc1ncnc2c1ncn2[C@@H]1O[C@H](COP(=O)(O)OP(=O)(O)OP(=O)(O)O)[C@@H](O)[C@H]1O	Histidine--tRNA ligase, cytoplasmic (HARS1, Homo sapiens, UniProt P12081, Y454S)	thermal stability, DSF	–	–	–	ΔTm	0.7 °C
CCOc1ccccc1S(=O)(=O)N1CC(c2nc(-c3cccnc3)no2)C1	KCNT1	Tl+ flux, inhibitor	HEK293 expressing KCNT1	30 µM	–	activity class	inactive
COc1ccc(C(=O)NCCCNc2nc3cc(C)cc(C)c3cc2C#N)cc1	CFTR del508-508	CFTR correction, corrector, iodide influx rate	FRT expressing YFP-H148Q/I152L	up to 25 µM, 16-20 h, 37 °C, added: forskolin 20 µM, genistein 50 µM	–	Vmax	112 µM/s
Nc1ccc(-c2nc([C@H]3CCc4cc(-c5cc(Cl)ccc5-n5cnnn5)cc(=O)n43)c(F)[nH]2)c(F)n1	Coagulation factor XI (F11, Homo sapiens, UniProt P03951)	–	human, blood	oral, 80 mg once daily, fed, day 1, 24 h	–	FXI activity inhibition	33 ± 3.5%
Cc1ccc(O)c(C=NNC(=S)NCc2ccccc2)c1	Aldo-keto reductase family 1 member A1 (Bos taurus, UniProt Q3ZCJ2)	inhibitor	Bos taurus (calf)	100 µM, added: D-glucuronate substrate	–	inhibition	< 50%
Cc1ccc(C(=O)Nc2ccc3ccccc3c2)o1	Otop1 (Mus musculus, UniProt Q80VM9, T233A)	whole-cell patch-clamp	–	concentration not given, pH 6.0	reference: wild type	effect on acid-evoked current	decreased
CC(C)C[C@H](NC(=O)[C@@H](NC(=O)[C@@H](N)[C@@H](C)O)C(C)C)C(=O)N1CCC[C@H]1C(=O)N1CCC[C@H]1C(=O)N1CCC[C@H]1C(=O)N1CCC[C@H]1C(=O)N[C@@H](Cc1ccc(O)cc1)C(=O)N[C@@H](C)C(=O)N[C@@H](Cc1c[nH]cn1)C(=O)N[C@@H](CCCNC(=N)N)C(=O)N[C@@H](CC(N)=O)C(=O)O	YAP1 WW2 domain	binding, ITC	–	pH 7.0, 25 °C, WW2 domain	–	TΔS	-3.12 ± 0.01 kcal/mol
CCOc1ccccc1S(=O)(=O)N1CC(c2nc(-c3ccccn3)no2)C1	KCNT1	Tl+ flux, inhibitor	HEK293 expressing KCNT1	30 µM	–	activity class	inactive
Nc1cc(COc2c(Cl)cc(C[C@H](N)C(=O)O)cc2Cl)c2oc(-c3ccccc3)nc2c1	Large neutral amino acids transporter small subunit 1 (SLC7A5, Homo sapiens, UniProt Q01650)	leucine uptake, inhibitor	HEK293 expressing human LAT1	20 µM, 30 min, read immediately after washout, added: L-[14C]leucine 1 µM	reference: untreated	remaining activity	~20%
O=C(O)c1ccccc1O	Degenerin mec-4 (mec-4, Caenorhabditis elegans, UniProt P24612, A713T)	ion current, two-electrode voltage clamp	Xenopus oocytes coexpressing MEC-2	30 µM, -85 mV	reference: uninjected oocytes, positive inhibition, negative potentiation	current change	-5.39 µA
N[C@@H](Cc1cnc[nH]1)C(=O)O	Histidine--tRNA ligase, cytoplasmic (HARS1, Homo sapiens, UniProt P12081, V155G)	thermal stability, DSF	–	–	–	ΔTm	1.3 °C
Fc1cccc(SSc2cccc(F)c2)c1	tubulin	colchicine binding, [3H]colchicine binding	–	50 µM, 10 min, 37 °C, added: [3H]colchicine 5.0 µM	–	inhibition	12 ± 2%
CO[C@H]1[C@@H](O)[C@H]([n+]2cn(C)c3c(=O)[nH]c(N)nc32)O[C@@H]1COP(=O)([O-])OP(=O)(O)OP(=O)(O)OC[C@H]1O[C@@H](n2cnc3c(=O)[nH]c(N)nc32)[C@H](O)[C@@H]1O	NUDT16 (Homo sapiens, UniProt Q96DE0)	decapping, substrate	capped RNA transcribed by SP6 polymerase	concentration not given, 30 min	–	cap hydrolysis	8.72%
CC(=O)N[C@@H](CCC(=O)O)C(=O)N[C@@H](CC(N)=O)C(=O)N[C@@H](CCC(=O)O)C(=O)N[C@@H](CCC(N)=O)C(=O)N[C@H](C(=O)N[C@@H](CO)C(=O)N[C@@H](C)C(=O)N[C@H](C(=O)O)C(C)C)C(C)C	Tyrosine-protein phosphatase non-receptor type 13, PDZ2 domain (PTPN13, Homo sapiens, UniProt Q12923)	binding	–	–	–	koff	307 s⁻¹
CC(C)C[C@H](NC(=O)[C@@H](NC(=O)[C@@H](N)[C@@H](C)O)C(C)C)C(=O)N1CCC[C@H]1C(=O)N1CCC[C@H]1C(=O)N1CCC[C@H]1C(=O)N1CCC[C@H]1C(=O)N[C@@H](Cc1ccc(O)cc1)C(=O)N[C@@H](CCCNC(=N)N)C(=O)N[C@@H](Cc1c[nH]cn1)C(=O)N[C@@H](CCCNC(=N)N)C(=O)N[C@@H](CC(N)=O)C(=O)O	YAP1 WW2 domain	binding, ITC	–	pH 7.0, 25 °C, WW2 domain	–	TΔS	-1.9 ± 0.58 kcal/mol
Cc1cccnc1Nc1nc2c(s1)CCCc1nc(NC(=O)C(C)(C)C)sc1-2	CFTR del508-508	iodide influx, corrector, YFP halide quenching	FRT cells expressing YFP-H148Q/I152L	16 to 20 h, 37 °C, genistein 50 µM, added: forskolin 20 µM	–	Vmax	509 µM/s
CC(C)C[C@H](NC(=O)[C@@H](NC(=O)[C@@H](N)[C@@H](C)O)C(C)C)C(=O)N1CCC[C@H]1C(=O)N1CCC[C@H]1C(=O)N1CCC[C@H]1C(=O)N[C@@H](C)C(=O)N[C@@H](Cc1ccc(O)cc1)C(=O)N[C@@H](CCCNC(=N)N)C(=O)N[C@@H](Cc1c[nH]cn1)C(=O)N[C@@H](CCCNC(=N)N)C(=O)N[C@@H](CC(N)=O)C(=O)O	YAP1 WW1 domain	binding, ITC	–	pH 7.0, 25 °C, WW1 domain	–	ΔG	-5.74 ± 0.07 kcal/mol
LVYGG	Kelch domain-containing protein 2	native mass spectrometry	peptide, 200 mM ammonium acetate	20 µM Kelch domain-containing protein 2, pH 7	reference: total Kelch domain-containing protein 2 signal	fraction of protein bound	2.3%
IINFEKE	Endoplasmic reticulum aminopeptidase 1 (ERAP1, Homo sapiens, UniProt Q9NZ08, I681R)	L-AMC hydrolysis, activator	peptide	100 µM, 5 min, pH 8.0, 27 °C, mutant I681R, added: L-AMC varied from 0 µM	–	Vmax	234 ± 7 nmol/min/µg
CC(C)C[C@H](NC(=O)[C@@H](NC(=O)[C@@H](N)[C@@H](C)O)C(C)C)C(=O)N[C@@H](C)C(=O)N1CCC[C@H]1C(=O)N1CCC[C@H]1C(=O)N1CCC[C@H]1C(=O)N[C@@H](Cc1ccc(O)cc1)C(=O)N[C@@H](CCCNC(=N)N)C(=O)N[C@@H](Cc1c[nH]cn1)C(=O)N[C@@H](CCCNC(=N)N)C(=O)N[C@@H](CC(N)=O)C(=O)O	YAP1 WW1 domain	binding, ITC	–	pH 7.0, 25 °C, WW1 domain	–	ΔG	-5.68 ± 0.12 kcal/mol

Repeated from above:
Molecule	target	test	test system	setting	how to read	quantity	result
N[C@@H](Cc1cnc[nH]1)C(=O)O	Histidine--tRNA ligase, cytoplasmic (HARS1, Homo sapiens, UniProt P12081, V155G)	thermal stability, DSF	–	–	–	ΔTm	1.3 °C
O=C(O)c1ccccc1O	Degenerin mec-4 (mec-4, Caenorhabditis elegans, UniProt P24612, A713T)	ion current, two-electrode voltage clamp	Xenopus oocytes coexpressing MEC-2	30 µM, -85 mV	reference: uninjected oocytes, positive inhibition, negative potentiation	current change	-5.39 µA
